Measurements collected from several papers.
Numbered parts are unrelated; each lists some results of a single study. Substitutions count along the parent as printed.

Sample 1
Target: RNA binding protein fox-1 homolog 2, RRM domain, GST-SBP tag (RBFOX2, Homo sapiens, UniProt O43251-10, residues 100-194)
Technique: RNA Bind-n-Seq
Molecule type: RNA
Medium: in vitro
Concentration: 365 nM
Notes: natural RNA segment, single round, ends assumed
Baseline: no-protein control
Reading: higher = stronger binding
Residues (chain): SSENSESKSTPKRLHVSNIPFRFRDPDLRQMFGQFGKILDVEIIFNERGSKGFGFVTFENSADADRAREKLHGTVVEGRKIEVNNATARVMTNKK
Strand	RBNS enrichment (R)
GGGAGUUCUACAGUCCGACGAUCAAUAGGAUUUGACCUACAUUCUGUUGCCCCUAGGUUUGUGUUAGUGUCAGAAAUACUUAAACAGUGGUAAAUGCACAUGUUACUUUUAAAUCAUUAGGAUAACUCCUGUCUGGAAUUCUCGGGUGCCAA	0.556
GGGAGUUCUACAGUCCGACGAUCGAAUAUAUUGCUGUUUAUUUUUCUAUGUUCUGUUUCGUAGCCUUAAGAAGUGUUUCAAACGAUCUGAAUGUAUAAAACAAGUCAAUGCCCUACAUGGUGUGAUGCUGCAUUGGAAUUCUCGGGUGCCAA	0.518
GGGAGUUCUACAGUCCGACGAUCUUUUGACAGAAAUAUAUUUGCUAAUAUAUUAUAUGUAAAAUAUUUAAUAUCAAAAGAAAUUUGAUAUUUUUGUAAGAAUUUCCUGAGUACAAUGCUUUAUUGAAAAGCUUUGGAAUUCUCGGGUGCCAA	0.775
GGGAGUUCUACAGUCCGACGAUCAACCAAGAUGUAAAACAAGAAAUGCUUUGAGGCUUUCUAAGCGAUCCUCCUGUCUAAUUUGCACCUUUGUCUGGAUGCACACUUCUGACCUUGCUGCCACAACCUGUGGGUGGAAUUCUCGGGUGCCAA	0.359
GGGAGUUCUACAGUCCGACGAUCACUUUUUCAGGAUCUGUGUGAAGAAUGGUAAUGACGUAGUUGAAAGGAAAAUGUACUGUUGUGUGUUUCAUUUGUGUGAUUUCGUACCAAAAAAAUGUGUUUGAACUAUAUGGAAUUCUCGGGUGCCAA	1.9
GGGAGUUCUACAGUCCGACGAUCGCGCUCUAUUGCCCAUGGGAUAUGUGGUGUGUAUCCUUCAGAAAAAUUAAAAGGAAAAAUAAAGAAACUGUAGCCUGUUGUUUCUCCUGGGCUUGGGGUAGGGCUGCGGAUGGAAUUCUCGGGUGCCAA	1.78
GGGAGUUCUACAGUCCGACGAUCGUAGUUCACUCAGCCUUGAUUGUACUGCAAGGGCGAGACAAAAAUAAACGGGAAACGUGCUGUUCAACAUGUGACUUAUUUUUAAACUUCUAAACCCCAAACCUAGAGCUUGGAAUUCUCGGGUGCCAA	0.378
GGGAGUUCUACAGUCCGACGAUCCUUGUAGGGAAGGGACAAGCUGCAGAGGAACAGUGAUUUAAAGGCCCUUGGAGCUAGUCCCCUCAGCCUCAACUUUGAUCUGGCCUUUAGCCUCAAAGCUGCUGUACCUGUGGAAUUCUCGGGUGCCAA	0.303
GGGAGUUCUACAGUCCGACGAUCUUCCUAUGAGCUCUCUGCUCAGAGCAGCUGUCUGUGGUCCCGUGGGUCCUGGAUUCUGUGAUGGUAUCAGCACCUGGACGGCCCCAGUCUAGAUUCAGCAAUGAAAAUCCUGGAAUUCUCGGGUGCCAA	0.215
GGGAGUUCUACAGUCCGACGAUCGGACAGCCUUUUCCCCAGGCCUCAGAGCAUUGCUCAUCCGUGCCAAACUGGGUAGGUGGAUUUGAGCGGAAAGACUCCCAAAAUGUGCCAAGAAUUUCCCAGUCCCAGGCUGGAAUUCUCGGGUGCCAA	0.225
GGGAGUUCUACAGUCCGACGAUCUUGAAAAAAUACACUGGUGCUCUUUGAAGUGAUAAAAUGAGUGUUUAUGAAUGGGUGUAAUUAGGAAAUACUUCUCAUCUGACAGCUACAAAUAACUAAGUUUGGAGGUAUGGAAUUCUCGGGUGCCAA	0.738
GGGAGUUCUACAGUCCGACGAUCUUACGAUUUUGUAAUAAAUGUGUACAUUUUUUUUAAAUUUUUGGACAUCACAUGAAUAAAGGUAUGUAUGUACGAAUGUGUAUAUAUUAUAUAUAUGACAUCUAUUUUGGUGGAAUUCUCGGGUGCCAA	0.549

Sample 2
Target: CCNE1, cyclin fold, Cln2 fusion (human)
Technique: yeast growth competition, sequencing
Medium: yeast
Notes: weak parent motif
Baseline: not given
Reading: higher = stronger binding
Parent: RRM2 docking peptide (human); SKTARRIFQEPTE
Change	normalised enrichment score
SKTARRAFQEPTE [I7A]	0.0195
SKAARRIFQEPTE [T3A]	0.603
SKTAARIFQEPTE [R5A]	0.0681
SKTARRIFAEPTE [Q9A]	0.74
SKTARRIFQEPAE [T12A]	0.598
AKTARRIFQEPTE [S1A]	0.627

Sample 3
Target: RING finger protein unkempt homolog, zinc fingers 1-6, GST-SBP tag (UNK, Homo sapiens, UniProt Q9C0B0, residues 30-357)
Technique: RNA Bind-n-Seq
Molecule type: RNA
Medium: in vitro
Concentration: not given
Notes: RNA with constant flanks, human and mouse sites, ends assumed
Baseline: input RNA pool
Reading: higher = stronger binding
Residues (chain): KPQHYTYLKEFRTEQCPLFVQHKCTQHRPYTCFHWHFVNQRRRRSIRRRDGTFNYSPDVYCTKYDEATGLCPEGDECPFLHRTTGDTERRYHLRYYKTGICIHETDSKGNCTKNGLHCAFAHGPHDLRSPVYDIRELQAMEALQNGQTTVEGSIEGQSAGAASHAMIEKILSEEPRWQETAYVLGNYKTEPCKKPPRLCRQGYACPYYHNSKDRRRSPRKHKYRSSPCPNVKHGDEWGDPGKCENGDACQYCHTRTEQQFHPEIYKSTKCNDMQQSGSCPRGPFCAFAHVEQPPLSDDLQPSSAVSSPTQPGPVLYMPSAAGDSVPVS
Strand	bound/input enrichment [ratio]
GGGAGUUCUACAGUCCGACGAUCCUGAAAGUUCUGGCCACUGCAUUUGACACGACAUUGGGAGGUAGAAAAUUUGAUGAAGUGUUAGUAAAUCACUUCUGUGAAGAAUUUGGGAAGAAAUACAAGCUAGACAUUAAGUCCAAACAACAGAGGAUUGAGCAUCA	0.817
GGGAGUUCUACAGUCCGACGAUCAAACUAAAUGGAACCAUGUGCUAAUUUUUCACAAUUAUUGACCUGUAUUGAUUGCCACUGUAGUUUGGUAUUUCCCUUUACUUUGGUGGCCUGCUUCCCUCAUGCCCUGGAAUACAACUCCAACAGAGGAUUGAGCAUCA	0.317
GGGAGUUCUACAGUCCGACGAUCAUUAAGCAGGCUCUUCCCCAGUACGUGUUUUCUGAGCCAUGCAUACCCUCUCCUUGGCCUUAGGUUUACUCUCAAGUGUUCCCUCUAUUCUCAUGCGUCCCACUUUGGGUCUGUACAAUCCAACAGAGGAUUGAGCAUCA	0.298
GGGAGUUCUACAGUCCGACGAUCGAAGAUAAGCUGGAAUGUUCUGAAGAACUGGGUGAUCUUGUGAAAUCUGUGGACCCUACAUUGGCACUUAGUGUGUACCUAAGGGCUAACGUCCCAAAUAAAGUCAUUCAGUGCUUUGCACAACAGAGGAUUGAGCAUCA	0.111
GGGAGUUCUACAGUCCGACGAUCUAUUGAAAAUACACCAUAUGAAUUUAGUGAAUGUGGGAAAGCUUUCAUCCUUAUUACAUCUUAUUUGAUACUAGGGAAAUCUCCUGAUUAAAUUCACAUGCAUGAUAGGCAUGUUGGAAACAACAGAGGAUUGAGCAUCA	0.487
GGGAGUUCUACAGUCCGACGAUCUUUAGCUUCCUGGAGAGCCACAACAAGCUGGACAAAGACAACCUCUCCUACAUUGAGCACAUCUUUGAGAUAUCUCGCCGUCCUGACCUCCUCACUAUGGUGGUUGACUACAGAACCCGUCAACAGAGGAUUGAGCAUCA	0.137
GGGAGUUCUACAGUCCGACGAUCGCUGAAGAUGACAGCAAAAUUGAUUCAUGAAGUUUUUUGCCUCCCACGUUGGGAAGUCAUUAGUUGAACUAUUUUCACAUUGGCCCCCCACACAGGCCACUCUCUUCCCUUUCUUGGUGACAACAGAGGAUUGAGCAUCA	0.325
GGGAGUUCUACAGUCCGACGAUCGACUAUCACUUUGUCAUUUCUAGAGAACAAAUGGAGAAAGAUAUCCAAGAGCACAAAUUUAUAGAAGCUGGCCAGUACAAUGACAAUUUAUACGGAACCAGUGUGCAAUCUGUGAGAUUUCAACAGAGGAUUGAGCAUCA	0.638
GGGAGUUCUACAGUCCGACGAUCAUGCAGUCUGUGAUUGAACUUGGAAGAGUGAUCAGAGACCGAAAAACUAUUCCCAUAAAGUAUCCUUUGAAAGAAAUUGUGGUUAUCCAUCAAGAUCCAGAAGCUCUUAAAGAUAUCAAGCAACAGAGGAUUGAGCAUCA	0.0489
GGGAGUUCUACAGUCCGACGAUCGCUUUGACUUCAAAAAAAGCAAGAUUUGAUCCAUAUGGAAAGAAUAAGUUCUCCACUUGUAGAAUUUGUAAAAGUUCUGUGCACCAACCAGGUUCUCAUUACUGCCAGGGCUGUGCCUACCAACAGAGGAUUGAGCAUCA	0.33
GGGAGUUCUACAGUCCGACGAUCGUGGAUGUUUUGAUCGAUACAUGUCAUGGUGAAGAUGCCCUGCCCAAUGGGUUAGAUGUCACCUUUGAAGUGACAGAGCUGAGGAGACUGACGGGCAGUUACAACACCAUGGUUGGAAACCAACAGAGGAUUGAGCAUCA	0.347

Sample 4
Target: ABI1, truncated, D143A, DHFR fusion (Arabidopsis thaliana)
Technique: DHFR PCA, deep sequencing
Medium: yeast
Notes: methotrexate growth selection, single substitutions
Together with: (+)-ABA 0.0091 µM
Baseline: wild-type fitted maximum
Reading: higher = stronger binding
Parent: PYL1, truncated, DHFR fusion (Arabidopsis thaliana); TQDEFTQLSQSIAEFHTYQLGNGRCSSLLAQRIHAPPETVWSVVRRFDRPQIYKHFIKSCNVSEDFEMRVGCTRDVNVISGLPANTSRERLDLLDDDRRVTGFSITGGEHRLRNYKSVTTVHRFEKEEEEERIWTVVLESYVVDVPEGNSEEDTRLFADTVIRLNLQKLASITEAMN; partner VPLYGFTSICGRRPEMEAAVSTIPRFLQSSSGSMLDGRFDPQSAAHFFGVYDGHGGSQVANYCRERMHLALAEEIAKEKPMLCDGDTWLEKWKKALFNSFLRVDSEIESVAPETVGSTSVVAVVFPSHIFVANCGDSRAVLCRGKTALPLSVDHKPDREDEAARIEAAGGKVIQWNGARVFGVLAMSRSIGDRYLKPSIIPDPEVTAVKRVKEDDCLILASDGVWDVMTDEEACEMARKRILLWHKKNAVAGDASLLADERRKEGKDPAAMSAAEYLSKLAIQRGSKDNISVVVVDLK
Change	relative binding score [%]
L138H	6.02
S27Y	5.92
E89S	1.69
H34E	40.7
D97F	2.94
V145A	-1.67
R69H	6.25
D92C	6.6
D92P	-2.78
E64Y	4.79
L94H	12.3
V136C	-3.11
T6N	38.1
T6I	40.4
L112Q	2.93
A158H	36.3
E64S	34.8

Sample 5
Target: NFE2L3, bZIP domain (human)
Technique: DHFR protein complementation
Medium: yeast
Notes: single substitutions, most at no-binding floor
Baseline: wild-type JUN-FOS pair
Reading: higher = stronger binding
Parent: JUN, bZIP domain (human); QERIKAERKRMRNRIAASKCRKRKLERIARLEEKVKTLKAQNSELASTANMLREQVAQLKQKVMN; partner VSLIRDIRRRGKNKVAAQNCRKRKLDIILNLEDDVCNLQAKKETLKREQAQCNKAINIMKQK
Change	binding fitness [natural log]
K39F	-1.54
L31W	-1.49
A49L	-1.33
A57V	-1.53
A46F	-1.47
E33W	-1.48
A40C	-1.32
E54W	-1.54
R30M	-1.35
Q41T	-1.26
A40W	-1.5
V56K	-1.48
K36H	-1.2
L45M	-1.58
A49Y	-1.35
I28V	-1.22
E44R	-1.41
A49S	-1.58
E54D	-1.54
